Assay results gathered from unrelated publications.
A part holds a random share of what one study measured. Changes are numbered by the printed parent chain.

Study 1
Target: CCNF, cyclin fold, Cln2 fusion (human)
Method: yeast growth competition, sequencing
Sample: yeast
Notes: strong parent motif
Baseline: not given
Reading: higher = stronger binding
Measurement: normalised enrichment score
Starting sequence: HASPIN docking peptide (human); ASLRSVLFGLMNS
V6A: 1.49
L7A: 0.812
L3A: 1.19
M11A: 1.7
S5A: 1.94
L10A: 1.38

Study 2
Target: ABI1, truncated, D143A, DHFR fusion (Arabidopsis thaliana, UniProt P49597)
Method: DHFR PCA, dose-response
Sample: yeast
Notes: Hill fit, mean, not affinity
With: (+)-ABA, dose series
Reading: lower = more sensitive
Measurement: ABA EC50
Starting sequence: PYL1, truncated, DHFR fusion (Arabidopsis thaliana, UniProt Q8VZS8); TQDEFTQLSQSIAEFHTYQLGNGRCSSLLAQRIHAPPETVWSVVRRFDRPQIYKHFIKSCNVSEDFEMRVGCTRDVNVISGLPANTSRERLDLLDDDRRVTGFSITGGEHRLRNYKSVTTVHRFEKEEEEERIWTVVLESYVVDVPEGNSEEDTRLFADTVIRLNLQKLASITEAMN
L112V: 325 µM
F5T: 4.05 µM
F124P: 52.1 µM
E174Q: 2.52 µM
V145W: 528 µM
V118W: 519 µM
H122F: 625 µM
M68V: 2.86 µM
S171D: 1.7 µM
N85K: 0.369 µM
S27T: 76.4 µM
V137T: 268 µM
H34D: 2.3 µM

Study 3
Target: HLF, bZIP domain (human)
Method: DHFR protein complementation
Sample: yeast
Notes: single substitutions, most at no-binding floor
Baseline: wild-type JUN-FOS pair
Reading: higher = stronger binding
Measurement: binding fitness
Starting sequence: JUN, bZIP domain (human); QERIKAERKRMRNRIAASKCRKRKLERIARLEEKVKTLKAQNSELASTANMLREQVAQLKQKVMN; partner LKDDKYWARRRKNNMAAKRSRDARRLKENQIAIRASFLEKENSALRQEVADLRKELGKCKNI
K36V: -1.46 natural log
L45E: -1.59 natural log
R53S: -1.5 natural log
A29M: -1.47 natural log
T37A: -1.38 natural log
L52R: -1.54 natural log
E44N: -1.57 natural log
Q55D: -1.39 natural log
L31F: -1.13 natural log
S43T: -1.15 natural log
A29Y: -1.45 natural log
A29W: -1.48 natural log
T48K: -1.45 natural log
L31D: -1.36 natural log
A49G: -1.4 natural log
A49Y: -1.16 natural log
E33N: -1.33 natural log
Q55R: -1.38 natural log
E32M: -1.44 natural log
T37Y: -1.11 natural log
K34R: -1.31 natural log
V56G: -1.5 natural log
T37S: -1.44 natural log
E54W: -1.5 natural log
M51C: -1.48 natural log

Study 4
Target: RING finger protein unkempt homolog, zinc fingers 1-6, GST-SBP tag (UNK, Homo sapiens, UniProt Q9C0B0, residues 30-357)
Method: RNA Bind-n-Seq
Form: RNA
Sample: in vitro
Tested at: not given
Notes: RNA with constant flanks, ends assumed
Baseline: input RNA pool
Reading: higher = stronger binding
Measurement: bound/input enrichment
All sequences stand within: GGGAGUUCUACAGUCCGACGAUC … CAACAGAGGAUUGAGCAUCA
Residues (chain): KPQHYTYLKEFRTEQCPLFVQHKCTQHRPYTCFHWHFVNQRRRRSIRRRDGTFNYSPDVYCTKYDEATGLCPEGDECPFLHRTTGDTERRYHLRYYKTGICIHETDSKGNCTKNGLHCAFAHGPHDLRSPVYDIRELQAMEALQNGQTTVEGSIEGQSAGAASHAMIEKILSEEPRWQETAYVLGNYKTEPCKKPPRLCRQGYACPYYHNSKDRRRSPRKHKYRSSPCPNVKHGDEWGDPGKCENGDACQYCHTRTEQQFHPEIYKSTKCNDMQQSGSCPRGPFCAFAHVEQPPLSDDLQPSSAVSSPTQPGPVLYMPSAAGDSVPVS
UAUGAUGAAAAUAUUAACAUUUCUAGAUUAAAAGUAUGACUGAUCUUUCGUUAUCCACUGCCGCAAGGUGAAAGCACACACAAUCGAAAUCCAUAGAUAAUCAGUGUUUAGCCUUCUCCU: 0.586 ratio
GUAUUUGUCCCAUUUUUGUUUUUAAAUGUAUUUUUAUAAGAUGUAUACAUGUGUAUUUGUAACCGAUUUUUUGAUUAUAUAAUACUGAAACAUCUCUCAAUAUUAUGAAAAAUGUUAAAA: 0.29 ratio
UCCACCAAGAGCCUCUUCCUCGGCCAGAAGCUGAACCUUAUUCACAGUGAAAUCAGUAAUUCCGCCGGCUUUGAGGUGGAGGCCAUAAUCAAUCCUACCAAUGCUGACAUUGACCUUAAA: 0.123 ratio
GAAAGCACUACCCUAAGCCAUGAAGAACUCCAUGCUUUGCUAACCAAGAUAACUGUUUUCUCUUUGCCGAAGUUUUGUUUUUGAAAUGUGUAUUUCUAAUUAUAUAAAAUAUUAAGAAUC: 0.599 ratio
GGUUUAGGGUAGGGGUUAAUCUGUUGGGGGUUGAUGUGUUUAGCAAGAAGCUACUCCCCGCUUUUGCUAAAAUAUGGUUGGCACUGCCUCUUGUGGCACAGGCCAUAAUUGUUCCAUAGA: 1.49 ratio
GGUUUCAAUGAAACUGAUGAUUUAAAGAGAGCCGAAAGUAUGCUUCAACAAGCAGAUAAAUCCGGUUGCAGACAGUUCGUUACUCCAGCUGAUGUUGUCAGCGGAAACCCCAAACUGAAC: 0.0918 ratio
UAAUUUAUUUGUAUCAAUCCCCGCUUUAUAUUAAACGGCAACAAAAAAGCACAGAAAAUUCCGCACUUUAAUAAUUUUGACAUUAUUGUACAGCUCUUAAGUAUUUUCAAGACAGCACUA: 0.698 ratio
GAUGUAGAAAAAUUUUGUAACAGUGUAGUCGAUCUGUAUUCAAAUCUUAGUAAGCCAUUUUCCGACACCGUUUUGUAUAUCUUUAAGUUAACGAGUGCAAUUGGAGCUCAGGGCCCAGCG: 7.83 ratio

Study 5
Target: UBE2R2 UBC core domain (UniProt Q712K3)
Method: yeast two-hybrid
Sample: yeast
Notes: mostly zero background
Baseline: not given
Reading: higher = stronger interaction
Measurement: lacZ reporter activity
B1: TRIM35 RING domain (UniProt Q9UPQ4); chain PSRSFKEELLCAVCYDPFRDAVTLRCGHNFCRGCVSRCWEVQVSPTCPVCKDRASPADLRT
B2: UBE4A RING domain (UniProt Q14139); chain LQQQEEETYADACDEFLDPIMSTLMCDPVVLPSSRVTVDRSTIARHLLSDQTDPFNRSPLTMDQIRPNTELKEKIQRWLAERKQQKEQLE
B3: RNF175 RING domain (UniProt Q8N4F7); chain LPTRSLSDNICAVCGQKIIVELDEEGLIENTYQLSCNHVFHEFCIRGWCIVGKKQTCPYCKEKVDLKRMIS
B4: RNF32 RING domain (UniProt Q9H0A6); chain SLLQGDSVQPCPICKEEFELRPQVLLSCSHVFHKACLQAFEKFTNKKTCPLCRKNQYQTRVIH
B5: RFPL2 RING domain (UniProt O75678); chain MAALFQEASSCPVCSDYLEKPMSLECGCAVCLKCINSLQKEPHGEDLLCCCSSMVSRKNKIRR
B6: RNF5 RING domain (UniProt Q99942); chain ERGGAGATFECNICLETAREAVVSVCGHLYCWPCLHQWLETRPERQECPVCKAGISREKVVP
Construct (chain): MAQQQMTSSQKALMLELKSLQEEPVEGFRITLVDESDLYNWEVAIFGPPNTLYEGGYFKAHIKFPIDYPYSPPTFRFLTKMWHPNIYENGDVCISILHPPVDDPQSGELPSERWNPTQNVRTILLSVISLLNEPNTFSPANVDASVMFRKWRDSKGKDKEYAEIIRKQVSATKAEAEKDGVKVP
FLKKLEQSFMCVCCQELVYQPVTTECFHNVCKDCLQRSFKAQVFSCPACRHDLGQNYIMI (UHRF2 RING domain (UniProt Q96PU4)): 0
MANWVFCNRCFQPPHRTSCFSLTNCGHVYCDACLGKGKKNECLICKAPCRTVLLSK (RNF212 RING domain (UniProt Q495C1)): 0
B1 (TRIM35 RING domain): 0
KIKDLNEHIVCCLCAGYFVDATTITECLHTFCKSCIVKYLQTSKYCPMCNIKIHETQPLL (PCGF1 RING domain (UniProt Q9BSM1)): 0
SYEDKSNDFVCPICFDMIEEAYMTKCGHSFCYKCIHQSLEDNNRCPKCNYVVDNIDHLY (COP1 RING domain (UniProt Q8NHY2)): 0
B2 (UBE4A RING domain): 0
B3 (RNF175 RING domain): 0
QLQDEEDDSLCRICMDAVIDCVLLECGHMVTCTKCGKRMSECPICRQYVVRAVHVF (RNF34 RING domain (UniProt Q969K3)): 0
B4 (RNF32 RING domain): 0
KRQCSDVDDICSICQAEFQKPILLICQHIFCEECMTLWFNREKTCPLCRTVISDHINKW (RNFT1 RING domain (UniProt Q5M7Z0)): 0
B5 (RFPL2 RING domain): 0
B6 (RNF5 RING domain): 0
ISNDSETLEECMVCSDMKRDTLFGPCGHIATCSLCSPRVKKCLICKEQVQSRTKIE (MIB1 RING domain (UniProt Q86YT6)): 0

Excerpt of the above (study 5):
B1 (TRIM35 RING domain): 0
KIKDLNEHIVCCLCAGYFVDATTITECLHTFCKSCIVKYLQTSKYCPMCNIKIHETQPLL (PCGF1 RING domain (UniProt Q9BSM1)): 0
SYEDKSNDFVCPICFDMIEEAYMTKCGHSFCYKCIHQSLEDNNRCPKCNYVVDNIDHLY (COP1 RING domain (UniProt Q8NHY2)): 0
B2 (UBE4A RING domain): 0
